Measurements collected from several papers.
A part holds a random share of what one study measured. Substitutions count along the parent as printed.

Study 1 — technique: RNA Bind-n-Seq; form: RNA; medium: in vitro; concentration: 1 µM; setting: whole 134-nt RNA, ends assumed; added: 150 mM KCl; reference: input library; reading: higher = stronger binding
Target: Ras GTPase-activating protein-binding protein 1, RRM domain (G3BP1, Homo sapiens, UniProt Q13283)
UniProt Q13283, sequence (whole entry, looked up): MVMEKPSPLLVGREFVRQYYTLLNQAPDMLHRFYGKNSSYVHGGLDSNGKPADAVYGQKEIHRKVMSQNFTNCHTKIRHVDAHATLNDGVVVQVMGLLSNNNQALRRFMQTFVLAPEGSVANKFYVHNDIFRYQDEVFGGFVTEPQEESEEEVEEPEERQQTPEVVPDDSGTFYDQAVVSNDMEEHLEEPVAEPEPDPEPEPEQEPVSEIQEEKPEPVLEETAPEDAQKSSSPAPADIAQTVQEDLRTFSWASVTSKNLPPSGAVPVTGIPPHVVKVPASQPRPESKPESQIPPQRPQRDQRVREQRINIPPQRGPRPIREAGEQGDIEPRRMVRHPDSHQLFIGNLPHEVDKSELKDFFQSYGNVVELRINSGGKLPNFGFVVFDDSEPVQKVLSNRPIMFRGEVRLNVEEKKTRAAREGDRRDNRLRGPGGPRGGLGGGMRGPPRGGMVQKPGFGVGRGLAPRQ
Constant ends, left off below: GGGAGUUCUACAGUCCGACGAUC … UGGAAUUCUCGGGUGUCAAGG
| Oligonucleotide | log2 enrichment |
| --- | --- |
| AGUCCUGUGCUACACAUCGUAUGUACCGAAUCGGAAAAAAAGGAAAAAAAGGAAAGGAAAGUAUUAUGUUACGCCGUUCGGAUCUGCACU | 0.116 |
| CUCAAGUCCUGUGCUACACAUCGUAUGUACCGAAUCGGGGUUGGUUGGGGUUGGAAAGUAUUAUGUUACGCCGUUCGGAUCUGCACUUCC | -0.31 |
| GUCCUGUGCUACACAUCGUAUGUACCGAAUCGGGAAAAAGGGAAAAAGGGGAAAAAGGGAAAGUAUUAUGUUACGCCGUUCGGAUCUGCA | 0.325 |
| UCUCUUGCUCAAGUUUUCUCUCACAGAUGACAGCCACCUACCACAUAACAUGACCAGCAAACGGACUGUUCCUAGUCCAGAGGGCCUUGC | 0.0618 |
| GCAGGAAGUAAAAACAAAUGGAAAUGCUUCGGAUAGUGGCAGGGGUGGGAAAUGCUAAGGAAAGGGUGGGAUGGGAGUGGGUAAAGAGUU | 1.01 |
| UGGCCCUGGUGGCAUGCGGGGAGGAAGAGGUGGCCUCAUGGAUCGUGGUGGUUCCGGUGGAAUGUUCAGAGGUGGCCGUGGUGGAGACAG | 0.255 |
| AAGUCCUGUGCUACACAUCGUAUGUACCGAAUCGGGGUGGGGAAAAAGGGGAGGGGAAAGUAUUAUGUUACGCCGUUCGGAUCUGCACUU | 0.804 |
| UGUACUGAUGACAGCUAAUCUCUGAAUCUUUUUCCUCCAGGAUGUUCCUUCAGGAGGAAGCAGCACUAAAAGCACUCUGAGUCAAGAUGA | -0.26 |

Study 2 — technique: universal PBM; form: double-stranded DNA, one strand shown; medium: in vitro; concentration: not given; reading: higher = stronger binding
Target: Sal-like protein 4, full length isoform B (SALL4, Homo sapiens, UniProt Q9UJQ4-2, residues 1-616)
Setting: 8-mer, flanks averaged, mean of replicates
| Oligonucleotide | E-score |
| --- | --- |
| ACGATTCA | 0.0421 |
| AGGTCCAG | -0.177 |
| GAAAGTCA | 0.0735 |
| GGAGGACC | -0.34 |
| TAGCCGCA | -0.252 |
| CGCATAGC | -0.127 |
| CCGAGCTC | -0.244 |
| TCTACAGA | 0.0196 |

Study 3 — target: CCNB2, cyclin fold, Cln2 fusion (human); technique: yeast growth competition, sequencing; medium: yeast; setting: weak parent motif; reference: not given; reading: higher = stronger binding
Starting sequence: RBL2 docking peptide (human); STTRRRLFVENDS; partner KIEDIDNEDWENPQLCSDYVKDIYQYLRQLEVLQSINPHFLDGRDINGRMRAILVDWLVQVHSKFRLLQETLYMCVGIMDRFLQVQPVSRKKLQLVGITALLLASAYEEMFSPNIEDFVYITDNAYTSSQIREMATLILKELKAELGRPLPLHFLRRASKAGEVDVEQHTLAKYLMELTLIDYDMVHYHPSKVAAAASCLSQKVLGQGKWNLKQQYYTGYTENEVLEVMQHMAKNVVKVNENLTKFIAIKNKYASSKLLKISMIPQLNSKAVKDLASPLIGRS
| Substitution | normalised enrichment score |
| --- | --- |
| STTRRRLFVEMDS [N11M] | 0.727 |
| STTRRRLFVENGS [D12G] | -0.129 |
| SWTRRRLFVENDS [T2W] | 0.326 |
| STTRRRQFVENDS [L7Q] | 0.344 |
| STTRRRLQVENDS [F8Q] | 0.469 |
| STTRRRLLVENDS [F8L] | 0.302 |
| STTRRRLFVENSS [D12S] | 0.397 |
| STTARRLFVENDS [R4A] | 0.119 |

Single results of other studies
| Structure (SMILES) | target | assay | setting | quantity | value |
| --- | --- | --- | --- | --- | --- |
| CS(=O)(=O)c1cc(C2(NC(=O)c3cncc4c3cnn4-c3ccc(F)cc3)CC2)ccn1 | Receptor tyrosine-protein kinase erbB-3 (ERBB3, Homo sapiens, UniProt P21860) | cell-free assay, competition with immobilised ligand | 1 µM | remaining binding | 100% |

Some of these lines once more (study 3):
| Substitution | normalised enrichment score |
| --- | --- |
| STTRRRQFVENDS [L7Q] | 0.344 |
| STTRRRLQVENDS [F8Q] | 0.469 |
| STTRRRLLVENDS [F8L] | 0.302 |
| STTRRRLFVENSS [D12S] | 0.397 |
